{"data": "Values quoted from earlier work as cited in several papers", "pufM QA site": "Reaction center protein M chain, QA site (pufM, Cereibacter sphaeroides, UniProt P0C0Y9)", "HTR1A": "5-hydroxytryptamine receptor 1A (HTR1A, Homo sapiens, UniProt P08908)", "note": "Compare with care: the assays were run in different laboratories. ± gives the spread as reported.", "chain of UniProt P08908 (whole entry, looked up)": "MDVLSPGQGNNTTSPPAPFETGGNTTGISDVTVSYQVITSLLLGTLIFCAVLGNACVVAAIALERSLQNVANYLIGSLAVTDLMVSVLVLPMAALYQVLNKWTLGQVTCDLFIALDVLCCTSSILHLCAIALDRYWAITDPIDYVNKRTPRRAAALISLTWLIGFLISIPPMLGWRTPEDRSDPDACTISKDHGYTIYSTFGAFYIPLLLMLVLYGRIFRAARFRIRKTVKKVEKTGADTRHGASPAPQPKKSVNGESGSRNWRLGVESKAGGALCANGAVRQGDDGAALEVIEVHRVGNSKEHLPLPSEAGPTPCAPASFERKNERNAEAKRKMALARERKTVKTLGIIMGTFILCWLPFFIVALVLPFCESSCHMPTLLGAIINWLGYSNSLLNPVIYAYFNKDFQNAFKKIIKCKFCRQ", "chain of UniProt P04757 (whole entry, looked up)": "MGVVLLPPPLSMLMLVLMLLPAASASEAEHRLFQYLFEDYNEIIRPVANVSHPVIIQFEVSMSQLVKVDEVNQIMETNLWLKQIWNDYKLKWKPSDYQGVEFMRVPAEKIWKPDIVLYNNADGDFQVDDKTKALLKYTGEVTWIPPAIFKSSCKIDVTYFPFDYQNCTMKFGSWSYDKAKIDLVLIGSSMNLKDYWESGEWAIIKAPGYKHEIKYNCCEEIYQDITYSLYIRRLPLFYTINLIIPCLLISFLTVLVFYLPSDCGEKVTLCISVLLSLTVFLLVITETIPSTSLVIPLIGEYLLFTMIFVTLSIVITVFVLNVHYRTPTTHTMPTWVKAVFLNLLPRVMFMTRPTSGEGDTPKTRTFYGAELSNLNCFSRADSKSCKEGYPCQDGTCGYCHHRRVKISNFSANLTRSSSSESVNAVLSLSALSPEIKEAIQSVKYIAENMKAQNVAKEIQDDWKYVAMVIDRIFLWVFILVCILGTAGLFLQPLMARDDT", "chain of UniProt Q08638 (whole entry, looked up)": "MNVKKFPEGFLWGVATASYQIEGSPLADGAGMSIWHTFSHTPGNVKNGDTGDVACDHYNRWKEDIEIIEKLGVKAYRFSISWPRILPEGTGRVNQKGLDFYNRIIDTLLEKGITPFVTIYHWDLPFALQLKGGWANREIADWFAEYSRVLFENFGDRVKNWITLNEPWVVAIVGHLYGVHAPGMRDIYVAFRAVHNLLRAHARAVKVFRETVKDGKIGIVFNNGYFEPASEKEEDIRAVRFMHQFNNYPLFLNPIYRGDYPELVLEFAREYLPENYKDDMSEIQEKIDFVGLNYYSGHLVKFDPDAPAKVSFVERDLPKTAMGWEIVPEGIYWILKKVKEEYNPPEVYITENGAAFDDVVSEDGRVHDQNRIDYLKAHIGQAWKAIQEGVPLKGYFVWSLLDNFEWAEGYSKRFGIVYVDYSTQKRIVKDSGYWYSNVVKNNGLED", "chain of UniProt Q91XE4 (whole entry, looked up)": "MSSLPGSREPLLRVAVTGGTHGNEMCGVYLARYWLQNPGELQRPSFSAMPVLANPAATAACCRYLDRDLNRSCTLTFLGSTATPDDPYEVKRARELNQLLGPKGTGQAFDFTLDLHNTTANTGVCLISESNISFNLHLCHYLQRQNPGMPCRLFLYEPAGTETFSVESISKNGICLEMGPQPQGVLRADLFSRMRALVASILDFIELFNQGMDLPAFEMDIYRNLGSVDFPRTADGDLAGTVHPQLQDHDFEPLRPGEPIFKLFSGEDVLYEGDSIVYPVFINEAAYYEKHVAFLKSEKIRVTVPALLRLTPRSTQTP", "chain of UniProt P12392 (whole entry, looked up)": "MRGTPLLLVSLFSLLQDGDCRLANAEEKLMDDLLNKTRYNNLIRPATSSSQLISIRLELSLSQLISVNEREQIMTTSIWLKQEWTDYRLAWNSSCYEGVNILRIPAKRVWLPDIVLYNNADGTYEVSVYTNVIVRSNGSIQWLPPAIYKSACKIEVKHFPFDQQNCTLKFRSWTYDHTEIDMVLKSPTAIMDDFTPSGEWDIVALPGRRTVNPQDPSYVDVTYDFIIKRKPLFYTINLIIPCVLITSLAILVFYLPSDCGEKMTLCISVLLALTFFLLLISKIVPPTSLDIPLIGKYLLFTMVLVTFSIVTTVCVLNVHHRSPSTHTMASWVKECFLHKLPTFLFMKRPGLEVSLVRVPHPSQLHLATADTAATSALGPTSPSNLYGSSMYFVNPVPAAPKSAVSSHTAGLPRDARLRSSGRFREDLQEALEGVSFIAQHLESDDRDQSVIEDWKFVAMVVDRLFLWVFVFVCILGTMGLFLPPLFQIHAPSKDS", "chain of UniProt P25021 (whole entry, looked up)": "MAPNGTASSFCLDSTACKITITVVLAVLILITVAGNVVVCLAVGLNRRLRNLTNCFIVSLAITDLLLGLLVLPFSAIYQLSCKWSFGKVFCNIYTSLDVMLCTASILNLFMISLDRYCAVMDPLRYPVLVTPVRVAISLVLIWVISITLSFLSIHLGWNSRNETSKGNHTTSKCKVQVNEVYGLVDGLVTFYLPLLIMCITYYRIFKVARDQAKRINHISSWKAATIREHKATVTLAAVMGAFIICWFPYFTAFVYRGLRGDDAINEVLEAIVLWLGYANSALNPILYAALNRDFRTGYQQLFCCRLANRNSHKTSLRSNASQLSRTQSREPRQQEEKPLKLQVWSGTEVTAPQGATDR", "chain of UniProt P33533 (whole entry, looked up)": "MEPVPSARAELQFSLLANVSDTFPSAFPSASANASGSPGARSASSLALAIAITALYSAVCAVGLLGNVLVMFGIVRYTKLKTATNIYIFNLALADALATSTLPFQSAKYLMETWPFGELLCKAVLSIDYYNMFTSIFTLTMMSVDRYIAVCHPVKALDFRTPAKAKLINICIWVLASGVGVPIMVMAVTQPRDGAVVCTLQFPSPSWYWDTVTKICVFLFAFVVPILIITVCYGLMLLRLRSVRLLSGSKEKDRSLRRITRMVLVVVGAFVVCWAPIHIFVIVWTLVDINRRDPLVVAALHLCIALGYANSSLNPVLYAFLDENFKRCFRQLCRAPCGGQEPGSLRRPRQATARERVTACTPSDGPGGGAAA", "chain of UniProt P30411 (whole entry, looked up)": "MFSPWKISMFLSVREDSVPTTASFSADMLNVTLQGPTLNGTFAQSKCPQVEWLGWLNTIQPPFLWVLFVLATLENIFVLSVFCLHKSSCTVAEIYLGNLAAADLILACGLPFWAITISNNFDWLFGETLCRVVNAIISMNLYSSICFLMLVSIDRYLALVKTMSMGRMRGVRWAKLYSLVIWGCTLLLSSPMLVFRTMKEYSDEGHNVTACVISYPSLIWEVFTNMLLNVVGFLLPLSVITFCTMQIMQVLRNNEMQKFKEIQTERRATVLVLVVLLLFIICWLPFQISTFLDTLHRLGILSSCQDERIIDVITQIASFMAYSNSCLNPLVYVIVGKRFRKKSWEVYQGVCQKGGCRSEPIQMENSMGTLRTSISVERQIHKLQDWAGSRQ", "chain of UniProt P25103 (whole entry, looked up)": "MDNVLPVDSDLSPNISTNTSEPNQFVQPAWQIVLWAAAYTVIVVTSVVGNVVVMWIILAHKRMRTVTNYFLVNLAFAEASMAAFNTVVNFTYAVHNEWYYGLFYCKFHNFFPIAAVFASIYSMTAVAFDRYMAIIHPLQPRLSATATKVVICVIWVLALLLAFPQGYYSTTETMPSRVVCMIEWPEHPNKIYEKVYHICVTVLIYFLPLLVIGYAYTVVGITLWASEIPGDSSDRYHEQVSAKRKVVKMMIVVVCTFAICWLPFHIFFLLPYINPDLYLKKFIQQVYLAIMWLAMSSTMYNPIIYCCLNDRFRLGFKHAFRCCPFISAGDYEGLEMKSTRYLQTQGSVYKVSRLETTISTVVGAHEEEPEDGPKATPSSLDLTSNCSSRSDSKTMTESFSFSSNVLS", "chain of UniProt P14416 (whole entry, looked up)": "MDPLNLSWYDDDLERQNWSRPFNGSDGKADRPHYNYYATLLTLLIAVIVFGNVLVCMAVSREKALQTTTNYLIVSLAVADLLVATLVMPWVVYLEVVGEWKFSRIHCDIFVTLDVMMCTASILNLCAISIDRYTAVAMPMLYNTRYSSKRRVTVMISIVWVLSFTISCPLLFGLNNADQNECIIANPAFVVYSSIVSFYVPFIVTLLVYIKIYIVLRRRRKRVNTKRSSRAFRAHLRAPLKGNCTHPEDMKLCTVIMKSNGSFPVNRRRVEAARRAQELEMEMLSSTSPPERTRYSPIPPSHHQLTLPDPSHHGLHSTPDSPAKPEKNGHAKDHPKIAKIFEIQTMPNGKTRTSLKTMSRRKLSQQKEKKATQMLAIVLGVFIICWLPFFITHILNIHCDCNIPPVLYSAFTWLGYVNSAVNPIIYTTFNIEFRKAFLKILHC"}
{"SMILES": "CC(=O)N[C@@H](CSC(Cl)=CCl)C(=O)O", "tested on": "N-acyl-aromatic-L-amino acid amidohydrolase (carboxylate-forming) (Acy3, Mus musculus, UniProt Q91XE4)", "assay": "substrate", "conditions": "with: Co2+ 0.1 mM", "measurement": "Km", "result": "300 µM"}
{"SMILES": "FC(F)(F)C(F)(F)C(F)(F)C(F)(F)CCI", "tested on": "CYP3A4", "assay": "inhibitor", "conditions": "Tox21 screening", "measurement": "IC50", "result": "inactive"}
{"SMILES": "N[C@@H](CCC[C@H](NC(=O)CCC(=O)O)C(=O)O)C(=O)O (mixture of isomers)", "tested on": "dapE (Haemophilus influenzae, UniProt P44514)", "assay": "substrate", "measurement": "Km", "result": "730 ± 15 µM"}
{"SMILES": "CC(C)(O/N=C(\\C(=O)N[C@@H]1C(=O)N2C(C(=O)[O-])=C(C[N+]3(CCNC(=O)c4ccc(O)c(O)c4Cl)CCCC3)CS[C@H]12)c1csc(N)n1)C(=O)O", "tested on": "AmpC beta-lactamase", "assay": "substrate", "measurement": "Km", "result": "533 µM"}
{"SMILES": "CCNC(=O)c1nn(-c2ccc(Cl)cc2Cl)c(-c2ccc(Cl)cc2)c1C", "tested on": "CB1 receptor", "assay": "binding", "measurement": "Ki", "result": "46.3 nM"}
{"SMILES": "CC1=C(C)C(=O)c2ccccc2C1=O", "tested on": "pufM QA site", "assay": "P+HA− charge separation, delayed fluorescence", "measurement": "free energy change", "result": "-500 meV"}
{"SMILES": "Ic1ccccc1CN[C@@H]1C2CCN(CC2)[C@@H]1C(c1ccccc1)c1ccccc1 (racemic)", "tested on": "TACR1 (Homo sapiens, UniProt P25103)", "measurement": "Hill coefficient", "result": 1}
{"SMILES": "CCCCCOc1ccc(-c2ccc(-c3ccc(C(=O)N[C@H]4C[C@@H](O)[C@@H](O)NC(=O)[C@@H]5[C@@H](O)[C@@H](C)CN5C(=O)[C@H]([C@@H](C)O)NC(=O)[C@H]([C@H](O)[C@@H](O)c5ccc(O)cc5)NC(=O)[C@@H]5C[C@@H](O)CN5C(=O)[C@H]([C@@H](C)O)NC4=O)cc3)cc2)cc1", "system": "human, haematological patients", "conditions": "dose not given, typical value", "measurement": "peripheral volume of distribution", "result": "23.1 L"}
{"SMILES": "COC(=O)[C@@H]1C[C@H](OC(C)=O)C(=O)[C@H]2[C@@]1(C)CC[C@H]1C(=O)O[C@H](c3ccoc3)C[C@]21C", "tested on": "kappa opioid receptor I294A", "measurement": "Ki", "result": "12 ± 6 nM"}
{"SMILES": "CC(=O)N1CC[C@@H](NC(=O)[C@@H](N)Cc2c(C)cc(O)cc2C)c2cc(Cc3ccccc3)ccc21", "tested on": "Oprd1 (Rattus norvegicus, UniProt P33533)", "assay": "agonist", "conditions": "concentration not given", "measurement": "DOR stimulation", "result": "26 ± 3%"}
{"SMILES": "O=C(CCCN1CCC2(CC1)C(=O)NCN2c1ccccc1)c1ccc(F)cc1", "tested on": "DRD2 (Homo sapiens, UniProt P14416)", "conditions": "historical reference value", "measurement": "Hill coefficient", "result": 1}
{"SMILES": "Nc1ccccc1C(=O)C[C@H](N)C(=O)O", "tested on": "kynureninase (Pseudomonas fluorescens)", "assay": "substrate", "measurement": "Km", "result": "25 µM"}
{"SMILES": "Nc1ncc(-c2nc(N3CCOCC3)nc(N3CCOCC3)n2)c(C(F)F)n1", "tested on": "PIK3CB (Homo sapiens, UniProt P42338)", "assay": "KinomeScan competition binding", "conditions": "10 µM", "measurement": "remaining binding", "result": "0%"}
{"SMILES": "Nc1ncnc2c1ncn2[C@@H]1O[C@H](COP(=O)(O)OP(=O)(O)OP(=O)(O)O)[C@@H](O)[C@H]1O", "tested on": "dnaK (Escherichia coli, UniProt P0A6Y8, E213C/T22C)", "assay": "tryptophan fluorescence decrease", "conditions": "25 °C", "measurement": "maximum rate", "result": "≤ 1.5 s⁻¹"}
{"SMILES": "Nc1nc2c(ncn2[C@@H]2O[C@H](CO)[C@@H](O)[C@H]2O)c(=O)[nH]1", "tested on": "Adenosine/guanosine nucleoside ribohydrolase (Trichomonas vaginalis, UniProt A2EYV3)", "assay": "hydrolysis in cells, substrate, 13C-edited 1H NMR", "conditions": "hydrolysis blocked by forodesine", "measurement": "Km", "result": "121 µM"}
{"SMILES": "CN1C[C@H](CNC(=O)OCc2ccccc2)C[C@@H]2c3cccc4c3c(cn4C)C[C@H]21", "tested on": "HTR1A", "conditions": "historical reference value", "measurement": "Hill coefficient", "result": 0.9}
{"SMILES": "O=C(O)/C(=C/c1c(C(=O)O)[nH]c2cc(Cl)cc(Cl)c12)c1ccccc1", "tested on": "Grin1 (Rattus norvegicus, UniProt P35439)", "measurement": "Hill coefficient", "result": 0.6}
{"SMILES": "Nc1c(Br)cccc1C(=O)C[C@H](N)C(=O)O", "tested on": "kynureninase (Pseudomonas fluorescens)", "assay": "substrate", "measurement": "Km", "result": "2000 µM"}
{"SMILES": "Nc1ccn([C@@H]2O[C@H](CO)[C@@H](O)[C@H]2O)c(=O)n1", "tested on": "uncharacterized protein (Trichomonas vaginalis, UniProt A2EYV3)", "assay": "substrate", "measurement": "kcat/Km", "result": "inactive"}
{"SMILES": "O=C(O)C1=CCCN(CCON=C(c2ccccc2)c2ccccc2)C1", "tested on": "Slc6a1 (Rattus norvegicus, UniProt P23978)", "measurement": "Hill coefficient", "result": 1.1}
{"SMILES": "O=S(=O)([O-])C(F)(F)C(F)(F)C(F)(F)C(F)(F)C(F)(F)C(F)(F)C(F)(F)C(F)(F)F.[K+]", "tested on": "CYP1A2", "assay": "inhibitor", "conditions": "Tox21 screening", "measurement": "IC50", "result": "inactive"}
{"SMILES": "C[C@]12CC[C@H]3[C@@H](CCC4=CC(=O)CC[C@@]43C)[C@@H]1CC[C@@H]2O", "tested on": "aromatase human placental", "assay": "substrate", "measurement": "Km", "result": "0.041 µM"}
{"SMILES": "NC(N)=NCCC[C@H](NC(=O)[C@H](Cc1ccccc1)NC(=O)[C@@H]1CCCN1C(=O)[C@H](CO)NC(=O)[C@H](Cc1ccccc1)NC(=O)CNC(=O)[C@@H]1CCCN1C(=O)[C@@H]1CCCN1C(=O)[C@@H](N)CCCN=C(N)N)C(=O)O", "tested on": "BDKRB2 (Homo sapiens, UniProt P30411)", "assay": "binding", "measurement": "Hill coefficient", "result": 1}
{"SMILES": "CN1C[C@H](CNC(=O)OCc2ccccc2)C[C@@H]2c3cccc4c3c(cn4C)C[C@H]21", "tested on": "HTR1A", "measurement": "Hill coefficient", "result": 0.9}
{"SMILES": "O=[N+]([O-])c1ccc(O[C@@H]2O[C@H](CO)[C@@H](O)[C@H](O)[C@H]2O)c([N+](=O)[O-])c1", "tested on": "bglA (Thermotoga maritima, UniProt Q08638)", "assay": "substrate", "measurement": "Km", "result": "300 µM"}
{"SMILES": "Cc1c(C(=O)NN)nn(-c2ccc(Cl)cc2Cl)c1-c1ccc(Cl)cc1", "tested on": "CB1 receptor", "assay": "binding", "measurement": "Ki", "result": "374 nM"}
{"SMILES": "CN1CCc2[nH]c3ccccc3c2CC1.O=C(O)/C=C/C(=O)O", "tested on": "Neuronal acetylcholine receptor; alpha3/beta4 (Rattus norvegicus, UniProt P04757+P12392)", "assay": "inhibitor", "conditions": "with: 100 µM acetylcholine", "measurement": "Hill coefficient", "result": "1.8 ± 0.2"}
{"SMILES": "CNC(=NCCSCc1csc(N=C(N)N)n1)NC#N", "tested on": "HRH2 (Homo sapiens, UniProt P25021)", "measurement": "Hill coefficient", "result": 1.1}
{"SMILES": "Nc1ccc(Br)cc1C(=O)C[C@H](N)C(=O)O", "tested on": "kynureninase (Pseudomonas fluorescens)", "assay": "substrate", "measurement": "Km", "result": "12 µM"}
{"SMILES": "Oc1cc(Br)cc(Br)c1Oc1ccc(Br)cc1Br", "tested on": "H295R", "conditions": "concentration not given", "measurement": "aromatase reduction", "result": "98.2%"}
{"SMILES": "Nc1ccccc1[C@H](O)C[C@H](N)C(=O)O", "tested on": "kynureninase (Pseudomonas fluorescens)", "assay": "substrate", "measurement": "kcat", "result": "0.6 s⁻¹"}
{"SMILES": "COC1=C(OC)C(=O)C(CC=C(C)C)=C(C)C1=O", "tested on": "pufM QA site", "assay": "P+HA− charge separation, delayed fluorescence", "measurement": "free energy change", "result": "-520 meV"}
{"note": "Repeated from above:"}
{"SMILES": "Nc1ccccc1[C@H](O)C[C@H](N)C(=O)O", "tested on": "kynureninase (Pseudomonas fluorescens)", "assay": "substrate", "measurement": "kcat", "result": "0.6 s⁻¹"}
{"SMILES": "Oc1cc(Br)cc(Br)c1Oc1ccc(Br)cc1Br", "tested on": "H295R", "conditions": "concentration not given", "measurement": "aromatase reduction", "result": "98.2%"}
{"SMILES": "O=C(O)/C(=C/c1c(C(=O)O)[nH]c2cc(Cl)cc(Cl)c12)c1ccccc1", "tested on": "Grin1 (Rattus norvegicus, UniProt P35439)", "measurement": "Hill coefficient", "result": 0.6}
{"SMILES": "Nc1ccccc1C(=O)C[C@H](N)C(=O)O", "tested on": "kynureninase (Pseudomonas fluorescens)", "assay": "substrate", "measurement": "Km", "result": "25 µM"}
{"SMILES": "O=S(=O)([O-])C(F)(F)C(F)(F)C(F)(F)C(F)(F)C(F)(F)C(F)(F)C(F)(F)C(F)(F)F.[K+]", "tested on": "CYP1A2", "assay": "inhibitor", "conditions": "Tox21 screening", "measurement": "IC50", "result": "inactive"}
